Measured values pooled from the literature.
Each numbered part is a random draw from the data of one study; scales do not carry over between parts. Changes are numbered by the printed parent chain.

Sample 1
Target: Histone acetyltransferase KAT6A, winged helix 1, GST fusion (KAT6A, Homo sapiens, UniProt Q92794, residues 1-85)
Method: protein binding microarray
Molecule type: double-stranded DNA, one strand shown
Medium: in vitro
Tested at: not given
Setting: 8-mer, flanks averaged, mean of 2 arrays, mostly near background
Reference: not given
Reading: higher = stronger binding
Target sequence (chain): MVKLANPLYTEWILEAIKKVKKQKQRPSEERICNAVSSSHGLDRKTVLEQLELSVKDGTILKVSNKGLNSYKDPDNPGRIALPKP
| Sequence | E-score |
| --- | --- |
| AAAGTTTG | -0.153 |
| TACACCAA | -0.249 |
| TCACTAAA | -0.183 |
| GCGAGGGA | 0.0827 |
| ATGCCCTC | -0.067 |
| ATCGGCTA | 0.0929 |
| GGAGACAC | -0.14 |
| AGTAAGGG | 0.04 |
| CGTTCTCC | -0.138 |
| AGTATCTG | -0.171 |
| ATGGCAGG | -0.0615 |
| ACATGAGC | 0.0755 |
| TATTCACA | -0.208 |
| ATATCACC | 0.0278 |
| CGGGAGTA | 0.243 |
| GATCCGCA | 0.158 |
| ATCAAATA | -0.188 |
| ACAGCCGG | 0.268 |

Sample 2
Target: Ras GTPase-activating protein-binding protein 1, full length (G3BP1, Homo sapiens, UniProt Q13283)
UniProt Q13283, sequence (whole entry, looked up): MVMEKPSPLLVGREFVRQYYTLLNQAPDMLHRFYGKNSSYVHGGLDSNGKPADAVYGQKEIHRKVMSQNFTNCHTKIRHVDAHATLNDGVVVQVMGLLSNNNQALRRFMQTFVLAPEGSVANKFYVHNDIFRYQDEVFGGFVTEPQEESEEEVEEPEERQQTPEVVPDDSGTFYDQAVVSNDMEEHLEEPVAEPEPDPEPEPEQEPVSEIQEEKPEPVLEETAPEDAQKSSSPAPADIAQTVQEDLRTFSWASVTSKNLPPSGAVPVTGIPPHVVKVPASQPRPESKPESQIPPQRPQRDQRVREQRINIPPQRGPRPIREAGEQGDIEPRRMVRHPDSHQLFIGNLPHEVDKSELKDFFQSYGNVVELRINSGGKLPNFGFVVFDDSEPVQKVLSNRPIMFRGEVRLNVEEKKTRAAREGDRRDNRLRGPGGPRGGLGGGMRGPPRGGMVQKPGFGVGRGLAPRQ
Method: RNA Bind-n-Seq
Molecule type: RNA
Medium: in vitro
Tested at: 200 nM
Setting: whole 134-nt RNA, ends assumed
With: 150 mM KCl
Reference: input library
Reading: higher = stronger binding
Constant ends, left off below: GGGAGUUCUACAGUCCGACGAUC … UGGAAUUCUCGGGUGUCAAGG
| Sequence | log2 enrichment |
| --- | --- |
| UGGCCCUGGUGGCAUGCGGGGAGGAAGAGGUGGCCUCAGGGAUCGUGGUGGUCCCGGUGGAAUGUUCAGAGGUGGCCGUGGUGGAGACAG | -0.109 |
| UCAAGUCCUGUGCUACACAUCGUAUGUACCGAAUCGGGGCCGGGCCGGGGCCGGGAAAGUAUUAUGUUACGCCGUUCGGAUCUGCACUUC | -0.152 |
| ACCAUGCAGGUGGGCAUCUUUGGGAAGUGGGGCAAGGGGGGGAUAGGGAGGAGGGUAACACUUUGGGAACAGGUGGUCCCAGGUCGUUUC | 1.3 |
| UGGCCCUGGUGGCAUGCGGGGAGGAAGAGGUGGCCUCAUGGAUCGUGGUGGUCCCGGUGGAAUGUUCAGAUGUGGCCGUGGUGGAGACAG | 0.363 |
| UAACUUUAGAGGAGGAUCUGAUGGAUAUGGCAGUGGACGUGGAUCUGGGGAUGGCUAUAAUGGGUAUGGAGGAGGACCUGGAGGUGGCAA | 0.116 |
| CUCAAGUCCUGUGCUACACAUCGUAUGUACCGAAUCGGUUUGGUUUGGUUUGGAAAGUAUUAUGUUACGCCGUUCGGAUCUGCACUUCCA | -0.45 |
| UAACUUUAGAGGAGGUUCUGAUGGAUAUGGCAGUGGACGUGGAUUUGGGGAUGGCUAUAAUGGGUAUGGAGGAGGACCUGGAGGUGGCAA | 0.435 |
| AGUCCUGUGCUACACAUCGUAUGUACCGAAUCGGGCCCCGGGGCCCCGGGCCCCGGGGAAAGUAUUAUGUUACGCCGUUCGGAUCUGCAC | 0.698 |
| UGGGAGGUGGAUUUUGUUUAUUUUUUUAGAUCAUUUCCAGGGGUGGGAAUUUUUUUUUAAUAUGUGUCAUGAAUAAAGUUGUUUUUGAAA | 0.0819 |
| AAGUCCUGUGCUACACAUCGUAUGUACCGAAUCGGGAAAGGGAGGGAAAAAAAGGGAAAGUAUUAUGUUACGCCGUUCGGAUCUGCACUU | 0.0015 |

Sample 3
Target: RNA binding protein fox-1 homolog 2, RRM domain, GST-SBP tag (RBFOX2, Homo sapiens, UniProt O43251-10, residues 100-194)
Method: RNA Bind-n-Seq
Molecule type: RNA
Medium: in vitro
Tested at: 365 nM
Setting: natural RNA segment, single round, ends assumed
Reference: no-protein control
Reading: higher = stronger binding
Constant ends, left off below: GGGAGUUCUACAGUCCGACGAUC … UGGAAUUCUCGGGUGCCAA
Residues (chain): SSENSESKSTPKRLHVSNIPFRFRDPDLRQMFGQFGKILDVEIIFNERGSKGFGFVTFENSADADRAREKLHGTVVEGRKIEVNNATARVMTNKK
| Sequence | RBNS enrichment (R) |
| --- | --- |
| CUGUGAUUAUAUUAUAUUGAGGCAUUUGUAGUGCAGCUGAAGACUGAAUUUAUGCCUUUUGUAAACAUGAUAGGUAUAAAUGUCUUAUAAACAUUCUGGAGUAUGUAUAG | 0.365 |
| GUGAAAGCUGAACAUUACCGAUAAGGCACAGGUUCCUUUUGAACAUGUUUUUCUCACUUAGGUCUCACAAAAGUAUGAUUUUUCUCAAAAGUCCUGUAUUUAUGUAUUUU | 0.449 |
| UUAGGGGAAUUAAGGACAGGCCUAGAGUUAAAACACUUGUCUCCUAGUGUCACCUCUGCCAGCAGACUGUUACUUUCCUUCUGAAAAAGCCAAUAGUCUUUUUUUUUUUC | 0.709 |
| GUUACUGCUAGAUUCCAAUUCAACUGCCUUGUAGCCUGGGAAGCCCAGCAAGUCAUAACCUCCUGUCUUCUAGGAACCCGUGGGCUUUUACUGUGCAUGUCUCUGUACAA | 1.82 |
| GUACAAAACACAACCGAGGAGCGUAUACAGUUGAAAACAUUUUUGUUUUGAUUGGAAGGCAGAUUAUUUUAUAUUAGUAUUAAAAAUCAAACCCUAUGUUUCUUUCAGAU | 0.639 |
| UAUCAGAGGCAAAGGAAGGUCUACAGGCAUCAAUGAGGGCAAAGGAGGGGGUCUCCAGACUCCACUGAAGCAGGAAGUCCACUGUUGUAAACUGAGUUUGCUAAAUUGGG | 0.332 |
| UAUCCCUUCAGCUCUCUGAUCUGCUCUUUCUUCAUGAUACUUAGUCUGCAGGGCAUAUUAAGAUCAUCCCAGAGGUUCAGGCAGUUCCUGUCAUCUCUGAAAAGACUGGG | 0.307 |
| UGUAGCAGCGCAUCAGGCUUGAGAUGCCAGGGGUUUGAUACAGGCGUGGAAUCACUUUCCAGGCCAGAGCCCUAGAGGGGUGCUGGUCUCCCUGCUUUGCUGUAUGGUGA | 0.668 |
| UCUGUGUUUGAGAGGGGGUCUGCCAUUCCUGCUUGGGGACUGGUGGGGAAGAGGGCCAGGACAUCUUCUGAGCCAGGACGUCCCUGAGGCUCCACCUCCAAGCUCAGACA | 1.11 |
| GCCUCUUGUCUGCAAUAGGAUGUUCAUGUACAAAAGUGGUUUUCUUUAAUAAAAGGUGGAAACAUUGUGUGAUUGUCCAUCCCUCUGAAAAUGGAUGAUAAAAGAAUAAA | 0.483 |
| GUUUGUAAUUCUUUGAUGUGCUACAAACCUGAAACUGGUAAGACAAGCACAAAGCAACGUGCAAUACAAAAAUCGUAUCUCAAGGGAAAAUACUCAAAGAAAGAAAAGUG | 0.428 |
| UAAGUAUGAAUCUGCUAUGAUAAAAGAAAUUCUCACUUCUCAAAUAGUCUUCUUGUAAGGAGCAUUGGGCUGUCAUCUUUGAGCUGCUUAUCAAAAUACAGAUCAUUAUU | 0.494 |

Sample 4
Target: Sal-like protein 4, full length isoform B (SALL4, Homo sapiens, UniProt Q9UJQ4-2, residues 1-616)
Method: universal PBM
Molecule type: double-stranded DNA, one strand shown
Medium: in vitro
Tested at: not given
Setting: 8-mer, flanks averaged, mean of replicates
Reading: higher = stronger binding
Construct (chain): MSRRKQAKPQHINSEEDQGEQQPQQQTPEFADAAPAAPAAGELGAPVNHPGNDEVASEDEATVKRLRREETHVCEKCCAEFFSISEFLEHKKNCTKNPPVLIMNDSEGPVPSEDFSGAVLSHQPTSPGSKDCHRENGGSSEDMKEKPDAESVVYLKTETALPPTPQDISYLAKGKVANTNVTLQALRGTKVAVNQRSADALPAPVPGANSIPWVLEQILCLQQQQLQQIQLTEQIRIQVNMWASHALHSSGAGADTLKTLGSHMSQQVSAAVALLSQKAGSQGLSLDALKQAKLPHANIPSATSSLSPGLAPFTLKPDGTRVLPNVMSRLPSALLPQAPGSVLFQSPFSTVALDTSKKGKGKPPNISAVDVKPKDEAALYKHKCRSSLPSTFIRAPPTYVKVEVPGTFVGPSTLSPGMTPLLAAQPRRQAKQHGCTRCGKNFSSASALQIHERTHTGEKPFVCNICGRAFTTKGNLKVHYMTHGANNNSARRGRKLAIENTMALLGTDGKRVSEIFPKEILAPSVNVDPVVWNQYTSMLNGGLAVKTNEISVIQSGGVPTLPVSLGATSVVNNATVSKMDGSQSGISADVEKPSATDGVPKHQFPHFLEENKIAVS
| Sequence | E-score |
| --- | --- |
| ACAGCGAC | -0.252 |
| TGAGCGCA | -0.177 |
| AACCCCAC | -0.165 |
| CCCCGCCA | -0.0628 |
| ATGCTAAT | 0.209 |
| CAAGCAAG | -0.21 |
| CATATTTC | 0.412 |
| CCGACCAC | -0.202 |
| GTCACGTA | 0.0938 |
| CAAAACTG | 0.122 |
| GCACACGC | -0.196 |
| CTCCGCAC | -0.222 |
| GTGTTCTA | 0.148 |
| CCGCCCCA | -0.173 |
| AGTTTAGC | -0.0284 |
| CACCGCAG | -0.1 |
| GGACTCTA | -0.0614 |
| ATTGCCTC | 0.0752 |
| CTTCATGA | 0.0553 |
| ACCTTGAA | 0.0573 |
| ATTTCAGC | 0.0911 |
| CAGGTAAA | 0.218 |
| GGAGAGCA | -0.0877 |
| AAAAACGA | 0.238 |
| TCTCCACA | 0.1 |

Sample 5
Target: CCNB3, cyclin fold, Cln2 fusion (human)
Method: yeast growth competition, sequencing
Medium: yeast
Setting: weak parent motif
Reference: not given
Reading: higher = stronger binding
Parent: AKAP12 docking peptide (human); GSPLKKLFTSTGL
| Change | normalised enrichment score |
| --- | --- |
| GSPLAKLFTSTGL [K5A] | -0.472 |
| GSPLKKLFTSAGL [T11A] | -0.481 |
| GSPLKKLFASTGL [T9A] | 0.25 |
| GSPLRKLFTSTGL [K5R] | 0.315 |
| GSPLKKLFTATGL [S10A] | 0.344 |
| GSPLAKAFTSTGL [K5A L7A] | 0.0952 |
| GSPLKKLLTSTGL [F8L] | -0.284 |
| GSPLKKAFTSTGL [L7A] | 0.403 |
| ASPLKKLFTSTGL [G1A] | 0.0539 |
| GSPLKKLFTSTAL [G12A] | -0.341 |
